Measurements of several laboratories.
Each line is one published result; not all experiments were run side by side. Several values in a cell are separate wells, animals, samples, runs or records. Numbers after ± are the reported error.

With `COc1ccnc(C(=O)N[C@H]2COC(=O)[C@H](Cc3ccccc3)[C@@H](OC(=O)C(C)C)[C@H](C)OC2=O)c1OCOC(=O)C(C)C` the NOAEL was 177 mg/kg/day (maternal toxicity, body weight loss; New Zealand white rabbit, female).
`CCCCCOc1ccc(-c2ccc(-c3ccc(C(=O)N[C@H]4C[C@@H](O)[C@@H](OCC[N+](C)(C)C)NC(=O)[C@@H]5[C@@H](O)[C@@H](C)CN5C(=O)[C@H]([C@@H](C)O)NC(=O)[C@H]([C@H](O)[C@@H](O)c5ccc(O)cc5)NC(=O)[C@@H]5C[C@@H](O)CN5C(=O)[C@H]([C@@H](C)O)NC4=O)cc3)cc2)cc1` gave an albumin of 26.5 g/L (adult ICU patients, mITT, serum; dose not given, day 14).
For `COc1ccc(CCC2CCCC(CCc3ccc(OC)cc3)N2C[C@@H](O)CO)cc1.Cl` (stereo in doubt), the Vmax change was 1.4 ± 3.3% (rabbit Purkinje fibres; 0.3 µM, cycle length 1 s; reference: baseline).
`O=C(Nc1ccccc1)C1CCN(C(=O)Oc2cccnc2)CC1` — result for “subjects with eye disorders”: 0% (adverse event reporting; healthy women; oral, 20 mg, 7 days).
For `CC(C)[C@@H]1NC(=O)CNC(=O)[C@H](CC(N)=O)NC(=O)[C@H](CCCNC(=N)N)NC(=O)[C@H](Cc2ccc(O)cc2)NC(=O)[C@H](C(C)C)NC(=O)[C@@H](NC(=O)[C@@H](NC(=O)[C@H](CC(N)=O)NC(=O)[C@H](Cc2c[nH]c3ccccc23)NC(=O)[C@H](C)NC(=O)[C@H](Cc2ccccc2)NC(=O)CN)C(C)C)CSSC[C@@H](C(=O)N[C@@H](Cc2cnc[nH]2)C(=O)N[C@@H](CCCNC(=N)N)C(=O)N[C@@H](CCCNC(=N)N)C(=O)N[C@@H](C)C(=O)N[C@@H](CC(N)=O)C(N)=O)NC(=O)[C@H](C(C)C)NC(=O)[C@H](CCCNC(=N)N)NC1=O`, the remaining peptide was 27.9% and 26.2% and 22.5% (HPLC; mouse mammary gland homogenate; 2560 µM, 20.00 h, 37 °C, 50 mg/mL tissue).
`[O-][S+]1CCc2nc(N3CCC(c4ncc(Cl)cn4)CC3)nc(NC3(CO)CCC3)c21` (stereo not drawn): “adverse event incidence” 0% (refers to: Constipation; healthy male humans; 12 mg twice daily).
For `O=C(c1ccc(F)c(F)c1Nc1ccc(I)cc1F)N1CC(O)([C@@H]2CCCCN2)C1`, “SAE leading dose modification” read 20% (patients aged 2 to 6 years; oral, dose not given).
`CC(C)C(=O)OC[C@H]1O[C@@H](n2ccc(NO)nc2=O)[C@H](O)[C@@H]1O` has a freeze-thaw stability of 97.78 ± 0.47% (rat maternal blood dialysate; 250 ng/mL, high concentration, three cycles, added: NHC 1000 ng/mL).
For `O=C1Nc2cc3[nH]nc(-c4ccncc4)c3cc2CN1Cc1ccccc1`, “patients with subretinal fluid” read 33% (CTCAE v4.03; human, relapsed or refractory advanced solid tumours; intravenous, 3.6 mg/kg).
For `C[C@@H](NC(=O)N1C(=O)[C@H](Cc2ccnc(N)c2)[C@H]1C(=O)O)C1CCCCC1`, “incidence of urine erythrocyte positive” read 0% (healthy adult Chinese volunteers; continuous intravenous infusion, 0.6 mg/kg/h, 5-day infusion, CTCAE 5.0 grading).
`C[C@]1(CO)Cc2ncn(-c3ccc(C#N)c(Cl)c3)c2C(=O)O1` — result for “subjects with drug-related hyperhidrosis”: 0% (human; 10 mg multiple doses, fasted).
Under “drug-related TEAE, metabolism disorders”, `CCNCCCNC/C=C\CNCCCNCC` is recorded as 26.1% (human, advanced solid tumours; intravenous, dose not given; reference: patients).
The APTT of `CCc1ccc(CC/C=C/c2ccc3c(c2)C(=O)CC3)cc1` is reported as 15.2 s (Sprague-Dawley rat, female; oral, 120 mg/kg/day, 14 days).
`NCCCC[C@@H]1NC(=O)[C@@H](Cc2c[nH]c3ccccc23)NC(=O)[C@H](c2ccccc2)NC(=O)[C@@H]2C[C@@H](OC(=O)NCCN)CN2C(=O)[C@H](Cc2ccccc2)NC(=O)[C@H](Cc2ccc(OCc3ccccc3)cc2)NC1=O`: “subjects with adverse event Headache” 18% (healthy human volunteers; 1950 µg twice daily).
For `O=S(=O)(Nc1ccccc1)c1ccc(NC(=S)Nc2ccccc2)cc1`, “mean platelet volume” read 4.93 fL (mouse, female, blood; oral, 5 mg/kg daily, 14 days).
With `C[C@@H]1NC(=O)[C@H](CCCCNC(=O)CO/N=C/C(=O)NCCCC[C@@H]2NC(=O)[C@@H](Cc3ccccc3)NC(=O)[C@H](CC(=O)O)NC(=O)CNC(=O)[C@H](CCCNC(=N)N)NC2=O)NC(=O)CNC(=O)[C@@H]2CCCN2C(=O)[C@H](CCCCNC(=O)CO/N=C/C(=O)NCCCC[C@@H]2NC(=O)[C@@H](Cc3ccccc3)NC(=O)[C@H](CC(=O)O)NC(=O)CNC(=O)[C@H](CCCNC(=N)N)NC2=O)NC(=O)[C@H](CCCCNC(=O)CCNC(=O)CCNC(=O)CCNC(=O)[C@H](CCCCN)NC(=O)[C@H](Cc2ccccc2)NC(=O)CNC(=O)CN2CCCNCCNCCCNCC2)NC(=O)[C@H](CCCCNC(=O)CO/N=C/C(=O)NCCCC[C@@H]2NC(=O)[C@@H](Cc3ccccc3)NC(=O)[C@H](CC(=O)O)NC(=O)CNC(=O)[C@H](CCCNC(=N)N)NC2=O)NC(=O)CNC(=O)[C@@H]2CCCN2C(=O)[C@H](CCCCNC(=O)CO/N=C/C(=O)NCCCC[C@@H]2NC(=O)[C@@H](Cc3ccccc3)NC(=O)[C@H](CC(=O)O)NC(=O)CNC(=O)[C@H](CCCNC(=N)N)NC2=O)NC1=O` [copper-64 labelled] the tissue uptake was 12.3 ± 0.85 %ID/g (normal mice, kidney; intravenous, 0.74 MBq, 24 h post-injection).
`CN1CC[C@@H](c2c(O)cc(O)c3c(=O)cc(-c4ccc(C(F)(F)F)cc4Cl)oc23)[C@@H]1CO` — result for “patients with adverse event”: 25% (refers to: Vomiting; AML; oral, 150 mg, intermittent dosing).
`COc1cc2c(Oc3ccc4[nH]c(C)cc4c3F)ccnc2cc1OCC1(N)CC1` — result for “grade 1 or 2 Epistaxis”: 23.5% (paediatric recurrent refractory sarcoma; concentration not given, whole group).
`CO[C@H]1C[C@@H]2CC[C@@H](C)[C@@](O)(O2)C(=O)C(=O)N2CCCC[C@H]2C(=O)O[C@H]([C@H](C)C[C@@H]2CC[C@@H](OC(=O)NCCOCCOCCOCCOCCOCCOCCOCCOCCC(=O)N3CCc4cc(Cn5nc(-c6ccc7oc(N)nc7c6)c6c(N)ncnc65)ccc4C3)[C@H](OC)C2)C[C@@H](O)[C@H](C)/C=C(\C)[C@@H](O)[C@@H](OC)C(=O)[C@H](C)C[C@H](C)/C=C/C=C/C=C/1C` — result for “dose-reducing adverse events”: 0% (phase 1 dose escalation, refers to: gastric haemorrhage; advanced solid tumour patients; intravenous, 10 mg weekly, any grade).
`Cn1ncc(-c2nc(N[C@H]3CC[C@H](N)CC3)ncc2Cl)c1CC1CC1` — result for “adverse event incidence”: 53% (refers to: hypokalemia any grade; human patients phase I; dose not given).
`O=C(O)CNCP(=O)(O)O` — result for “dose fraction in milk fat”: 0.8% (whole cow milk; 20 nM nominal).
The alkaline phosphatase of `Clc1ccc(-c2ccccc2)cc1` is reported as 122 ± 28 U/L (Sprague-Dawley rats, female, serum; inhalation, 23 µg/rat, 2 h after exposure).
For `N=C(N)NCCC[C@@H](NC(=O)[C@@H](N)Cc1ccccc1)C(=O)N[C@@H](Cc1ccccc1)C(=O)N[C@@H](CCCCN)C(N)=O`, the lag time was 0 h (early Huntington's disease patients, plasma; subcutaneous, 15 mg, day 1, median).
`Cc1cc(C)c(CNC(=O)c2cc(Cl)c3c(c2C)O[C@@](C)([C@H]2CC[C@H](N(C)C)CC2)O3)c(=O)[nH]1`: “incidence of tumour-associated fever” 0% (relapsed/refractory NHL patients; dose not given, trial, safety set, treatment-related TEAE grade 5).
For `CC[C@H](C)[C@H](NC(=O)[C@H](CCCCN)NC(=O)[C@H](CCC(=O)O)NC(=O)[C@H](CCCCN)NC(=O)[C@H](CO)NC(=O)[C@H](CCCCN)NC(=O)[C@H](CCCNC(=N)N)NC(=O)[C@H](Cc1ccccc1)NC(=O)[C@H](Cc1ccccc1)NC(=O)[C@H](CC(=O)O)NC(=O)CNC(=O)[C@H](CC(C)C)NC(=O)[C@@H](N)CC(C)C)C(=O)NCC(=O)N[C@@H](CCCCN)C(=O)N[C@@H](CCC(=O)O)C(=O)N[C@@H](Cc1ccccc1)C(=O)N[C@@H](CCCCN)C(=O)N[C@@H](CCCNC(=N)N)C(=O)N[C@H](C(=O)N[C@H](C(=O)N[C@@H](CCC(N)=O)C(=O)N[C@@H](CCCNC(=N)N)C(=O)N[C@H](C(=O)N[C@@H](CCCCN)C(=O)N[C@@H](CC(=O)O)C(=O)N[C@@H](Cc1ccccc1)C(=O)N[C@@H](CC(C)C)C(=O)N[C@@H](CCCNC(=N)N)C(=O)N[C@@H](CC(N)=O)C(=O)N[C@@H](CC(C)C)C(=O)N[C@H](C(=O)N1CCC[C@H]1C(=O)N[C@@H](CCCNC(=N)N)C(=O)N[C@H](C(=O)N[C@@H](CCC(=O)O)C(=O)N[C@@H](CO)C(=O)O)[C@@H](C)O)C(C)C)[C@@H](C)CC)C(C)C)[C@@H](C)CC`, “remaining intact peptide” read 0% (LC-MS; 50% pooled human serum; 40 µM, 540 min, pH 7.5, 37 °C; reference: 0 h).
With `Cc1ccc(F)c2cc(C(=O)N[C@@H]3CCC[C@H](N4CC[C@H](N(C)S(C)(=O)=O)C4)C3)[nH]c12` the terminal half-life was 186 min (CD1 mouse; intravenous, 1 mg/kg).
`CC(C)(C(=O)NC1C2CC3CC1CC(C(N)=O)(C3)C2)N1CCN(c2ccc(C(F)(F)F)cn2)CC1` (stereo not drawn): “dose-normalised free Cmax” 0.168 (ng/mL)/mg (human, plasma; 10 mg once daily, 5 days, median).
